Results of several laboratories.
Each line is one published result; not all experiments were run side by side. Numbers after ± are the reported error.
CYP3A4: Cytochrome P450 3A4 (CYP3A4, Homo sapiens, UniProt P08684)

Compound = CC(C)=CCc1c(O)cc2c(c1O)C(=O)C[C@@H](c1ccc(O)cc1)O2; target = human CYP2E1; conditions = 10 µM, pH 7.4; measurement = inhibition; result = < 10%
Compound = CC[C@H]1[C@@H](O)[C@@H]2[C@H](CC[C@]3(C)[C@@H]([C@H](C)CCNC(=O)NS(=O)(=O)c4ccc(C(C)(C)C)cc4)CC[C@@H]23)[C@@]2(C)CC[C@@H](O)C[C@@H]12; target = CYP3A4; assay = substrate; system = human, plasma; conditions = 10 mg, alone, study day 1; measurement = Vd/F geometric mean; result = 416 L
Compound = NCc1cc2c(cc1F)C(=O)N(C1CCC(=O)NC1=O)C2 (centres unmarked); target = Amine oxidase [flavin-containing] A (MAOA, Homo sapiens, UniProt P21397); assay = substrate, LC-MS/MS; system = recombinant enzyme; conditions = 10 µM, 20 h, pH 7.4; measurement = concentration; result = 3.5 µM
Compound = Cc1cc(Nc2ncnc3ccc(NC4=NC(C)(CO)CO4)cc23)ccc1Oc1ccn2ncnc2c1 (centres unmarked); target = CYP3A4; system = human, plasma; conditions = oral, 300 mg tucatinib single dose, day 1, tucatinib alone; measurement = Tmax (median); result = 2.49 h
Compound = Nc1nnc(-c2cccc(Cl)c2Cl)c(N)n1; target = UGT1A, humanized; assay = glucuronidation, Michaelis-Menten kinetics; system = Tg-UGT1 mice, male, drinking water control group, pooled liver microsomes; conditions = 30 min, pH 7.2; measurement = Km; result = 200 ± 10 µM
Compound = COc1ccc(F)cc1C(=O)NCc1ccc(-c2nn([C@@H](C)C(F)(F)F)c(N)c2C(N)=O)cc1; target = CYP3A4; system = human, both sexes, plasma; conditions = oral, 200 mg, single dose, together with: itraconazole; measurement = Cmax; result = 4100 ng/mL
Compound = Cc1oc2ccccc2c1Cc1cc(I)c(OCC(=O)O)c(I)c1; target = Voltage-gated inwardly rectifying potassium channel KCNH2 (KCNH2, Homo sapiens, UniProt Q12809); assay = potassium current, whole-cell patch clamp; system = HEK293 expressing hERG1; conditions = 10 µM, at 0 mV, together with: MTx 4 µM; scale = reference: control; measurement = activation rate acceleration; result = 1.8 ± 0.1 fold
Compound = C=CC(=O)N1C[C@H](Nc2ncnc3[nH]ccc23)CC[C@@H]1C; target = CYP3A; assay = substrate; system = human; conditions = oral, 30 mg single dose, cpd alone; measurement = apparent oral clearance CL/F; result = 112 L/h
Compound = Cc1ccc2c(c1)C(=O)[C@]1(O)CCN(c3ccc4nc(C)ccc4c3)C1=N2.Cl; target = Potassium voltage-gated channel subfamily KQT member 1, with KCNE1 (KCNQ1, Homo sapiens, UniProt P51787); assay = ion channel panel; system = cells; conditions = concentration not given; measurement = inhibition; result = < 25%
Compound = CC(C)=CCc1c(O)cc(O)c2c1O[C@H](c1ccc(O)cc1)CC2=O; target = human CYP2E1; conditions = 10 µM, pH 7.4; measurement = inhibition; result = < 10%
Compound = CC[C@H](C)[C@H](NC(=O)[C@H](Cc1ccc(O)cc1)NC(=O)[C@@H](NC(=O)[C@@H](N)CCCN=C(N)N)C(C)C)C(=O)N[C@@H](Cc1c[nH]cn1)C(=O)N1CCC[C@H]1C(=O)N[C@@H](Cc1ccccc1)C(=O)O; target = chymotrypsin; assay = LC-MS; conditions = 20 µM, 30 min, pH 7.4, 25 °C; measurement = proteolytic conversion; result = 48.3 ± 2.7%

Repeated from above:
Compound = Cc1cc(Nc2ncnc3ccc(NC4=NC(C)(CO)CO4)cc23)ccc1Oc1ccn2ncnc2c1 (centres unmarked); target = CYP3A4; system = human, plasma; conditions = oral, 300 mg tucatinib single dose, day 1, tucatinib alone; measurement = Tmax (median); result = 2.49 h
